# Assay results pooled from the literature.
# ± marks the error that the study gave.
# Cell line: human red blood cells
Structure (SMILES),assay,test system,conditions,how to read,endpoint,result
CC(C)C[C@@H]1NC(=O)[C@H](CCCCN)NC(=O)CSC[C@@H]2NC(=O)[C@H](CC(C)C)NC(=O)[C@H](CC(C)C)NC(=O)[C@H](CCCCN)NC(=O)[C@H](CCCCNC(=O)[C@H](CCCCN)NC1=O)NC(=O)[C@H](CCCCN)NC(=O)[C@H](CC(C)C)NC(=O)[C@H](CCCCN)NC(=O)CSC[C@@H](C(=O)N[C@@H](CCCCN)C(N)=O)NC(=O)[C@H](CCCCN)NC(=O)[C@H](CC(C)C)NC(=O)[C@H](CC(C)C)NC2=O,,,"4 h, pH 7.4, room temperature",,minimal haemolytic concentration,2000 µg/mL
N=C(N)NCCC[C@H](NC(=O)[C@@H](N)CCCCN)C(=O)N[C@@H](Cc1c[nH]c2ccccc12)C(=O)N[C@@H](Cc1ccc(-c2ccccc2)cc1)C(=O)N[C@@H](CCC(N)=O)C(=O)N[C@@H](Cc1c[nH]c2ccccc12)C(=O)N[C@@H](Cc1ccc(-c2ccccc2)cc1)C(=O)N[C@@H](CCCCN)C(N)=O,haemolysis,,"1 h, 37 °C",,HC10,15 µM
CCCCCCCCCC(=O)NCCCC[C@H](NC(=O)[C@H](CCCCN)NC(=O)[C@@H]1CSCC(=O)N[C@@H](CCCCN)C(=O)N[C@@H](CC(C)C)C(=O)N[C@@H](CCCCN)C(=O)N[C@H]2CCCCNC(=O)[C@H](CCCCN)NC(=O)[C@H](CC(C)C)NC(=O)[C@H](CCCCN)NC(=O)CSC[C@H](NC(=O)[C@H](CC(C)C)NC(=O)[C@H](CC(C)C)NC(=O)[C@H](CCCCN)NC2=O)C(=O)N[C@@H](CC(C)C)C(=O)N[C@@H](CC(C)C)C(=O)N[C@@H](CC(C)C)C(=O)N1)C(N)=O,,,"4 h, pH 7.4, room temperature",,minimal haemolytic concentration,125 µg/mL
CC[C@H](C)[C@H](NC(=O)CNC(=O)[C@H](CC(C)C)NC(=O)CNC(=O)[C@H](CCCCN)NC(=O)[C@H](CCC(=O)O)NC(=O)[C@H](CCCCN)NC(=O)[C@@H](NC(=O)[C@H](Cc1ccccc1)NC(=O)[C@H](CC(=O)O)NC(=O)[C@H](CCCCN)NC(=O)[C@H](C)NC(=O)[C@H](CCCCN)NC(=O)[C@H](CC(N)=O)NC(=O)[C@H](CC(C)C)NC(=O)[C@H](Cc1c[nH]c2ccccc12)NC(=O)[C@H](CC(=O)O)NC(=O)[C@H](CCCCN)NC(=O)[C@@H](NC(=O)CNC(=O)[C@H](C)N)[C@@H](C)O)[C@@H](C)CC)C(=O)N[C@@H](CC(C)C)C(=O)N[C@@H](CO)C(=O)N[C@@H](C)C(=O)N[C@@H](C)C(=O)N[C@@H](C)C(=O)N[C@@H](CC(N)=O)C(=O)N[C@@H](C)C(=O)N[C@@H](C)C(=O)N[C@H](C(=O)N[C@@H](CC(N)=O)C(=O)O)[C@@H](C)CC,,,1 h,,HC50,> 200 µM
CC[C@H](C)[C@H](NC(=O)[C@H](CCCCN)NC(=O)[C@@H](NC(=O)[C@H](CS)NC(=O)[C@H](CCCNC(=N)N)NC(=O)[C@H](CCCNC(=N)N)NC(=O)[C@H](CC(N)=O)NC(=O)[C@H](CCCNC(=N)N)NC(=O)[C@H](CS)NC(=O)[C@@H](NC(=O)[C@H](CO)NC(=O)[C@@H](NC(=O)[C@H](CS)NC(=O)[C@H](CCCCN)NC(=O)[C@@H](N)CCCNC(=N)N)[C@@H](C)CC)C(C)C)[C@@H](C)CC)C(=O)N[C@@H](CS)C(=O)N[C@@H](CCCNC(=N)N)C(=O)O,,,"128 µg/mL, 3 h, 37 °C",baseline: Triton X-100,hemolysis,0.28%
CC[C@H](C)[C@H](NC(=O)[C@@H](CCCCN)NC(=O)[C@H](CCCCN)NC(=O)[C@H](Cc1ccccc1)NC(=O)[C@H](CC(C)C)NC(=O)[C@@H](CCCCN)NC(=O)[C@H](Cc1c[nH]c2ccccc12)NC(=O)[C@H](CCCCN)NC(C)=O)C(=O)NCC(=O)N[C@@H](C)C(=O)N[C@H](C(=O)N[C@@H](CC(C)C)C(=O)N[C@@H](CCCCN)C(=O)N[C@H](CCCCN)C(=O)N[C@@H](CC(C)C)C(N)=O)C(C)C,,,"64 µM, 1 h, 37 °C",baseline: Triton X-100,hemolysis,< 1%
CC[C@H](C)[C@H](NC(=O)[C@H](CCCN)NC(=O)[C@H](CC(N)=O)NC(=O)[C@H](Cc1c[nH]c2ccccc12)NC(=O)[C@H](Cc1ccccc1)NC(=O)[C@H](CCCN)NC(=O)[C@H](CCCCNC(=N)N)NC(=O)[C@H](CC(C)C)NC(=O)[C@H](Cc1c[nH]c2ccccc12)NC(=O)[C@H](CCCN)NC(=O)[C@H](CCCCNC(=N)N)NC(=O)[C@H](CC(C)C)NC(=O)CNC(C)=O)C(=O)N[C@@H](CCCN)C(=O)N[C@@H](CCCCNC(=N)N)C(N)=O,,5 % erythrocyte suspension,"1 h, 37 °C",,HC50,184 µM
N=C(N)NCCC[C@H](NC(=O)[C@H](CCCNC(=N)N)NC(=O)[C@@H]1CCCN1C(=O)[C@H](CCCNC(=N)N)NC(=O)[C@H](CCCNC(=N)N)NC(=O)[C@H](CCCNC(=N)N)NC(=O)[C@H](Cc1c[nH]c2ccccc12)NC(=O)[C@H](CCCNC(=N)N)NC(=O)[C@H](CCCNC(=N)N)NC(=O)[C@H](CCCNC(=N)N)NC(=O)[C@H](CCCNC(=N)N)NC(=O)[C@H](CCCNC(=N)N)NC(=O)[C@H](Cc1c[nH]c2ccccc12)NC(=O)[C@H](CCCNC(=N)N)NC(=O)[C@H](CCCNC(=N)N)NC(=O)[C@H](Cc1ccc(O)cc1)NC(=O)[C@H](CCCNC(=N)N)NC(=O)[C@H](CCCNC(=N)N)NC(=O)[C@H](CCCNC(=N)N)NC(=O)[C@@H](N)Cc1c[nH]c2ccccc12)C(N)=O,,,"100 µM, 24 h, pH 7.4, 37 °C, 0.25% v/v erythrocytes",,maximum haemolysis,61.8 ± 2%
CC[C@H](C)[C@H](NC(=O)[C@@H](N)C(C)C)C(=O)N[C@@H](Cc1c[nH]cn1)C(=O)N[C@@H](CCCCN)C(=O)N[C@@H](CC(C)C)C(=O)N[C@@H](C)C(=O)N[C@@H](CCCCN)C(=O)N[C@@H](CC(C)C)C(=O)N[C@@H](C)C(=O)N[C@@H](CCCCN)C(=O)N[C@@H](CCCCN)C(=O)N[C@@H](CC(C)C)C(=O)N[C@@H](C)C(=O)N[C@@H](CCCCN)C(=O)N[C@@H](CC(C)C)C(=O)N[C@@H](C)C(=O)N[C@@H](CCCCN)C(N)=O,,,"MIC against Escherichia coli, 1 h, 37 °C, 0.8% v/v",baseline: Triton X-100,haemolysis,13%
CC[C@H](C)[C@H](NC(=O)[C@H](Cc1ccccc1)NC(=O)[C@H](CC(=O)O)NC(=O)[C@H](CCCCN)NC(=O)[C@H](C)NC(=O)[C@H](CCCCN)NC(=O)[C@H](CC(N)=O)NC(=O)[C@H](CC(C)C)NC(=O)[C@H](Cc1c[nH]c2ccccc12)NC(=O)[C@H](CCC(=O)O)NC(=O)[C@H](CCCCN)NC(=O)[C@@H](NC(=O)CNC(=O)[C@H](C)N)[C@@H](C)O)C(=O)N[C@@H](CCCCN)C(=O)N[C@@H](CCC(=O)O)C(=O)N[C@@H](CCCCN)C(=O)NCC(=O)N[C@@H](CC(C)C)C(=O)N[C@@H](CCC(=O)O)C(=O)N[C@@H](CCSC)C(=O)N[C@@H](CC(C)C)C(=O)N[C@@H](CO)C(=O)N[C@@H](C)C(=O)N[C@@H](C)C(=O)N[C@@H](C)C(=O)N[C@@H](CC(N)=O)C(=O)N[C@@H](C)C(=O)N[C@@H](C)C(=O)N[C@@H](CC(C)C)C(=O)N[C@@H](CC(N)=O)C(=O)O,,,1 h,,HC50,> 150 µM
C[C@@H](O)[C@H](NC(=O)[C@H](CCCNC(=N)N)NC(=O)[C@H](CCCNC(=N)N)NC(=O)[C@H](CCCNC(=N)N)NC(=O)[C@@H]1CCCN1C(=O)[C@@H](N)CO)C(=O)N1CCC[C@H]1C(=O)N[C@@H](CO)C(=O)N1CCC[C@H]1C(=O)N[C@@H](CCCNC(=N)N)C(=O)N[C@@H](CCCNC(=N)N)C(=O)N[C@@H](CCCNC(=N)N)C(=O)N[C@@H](CCCNC(=N)N)C(=O)N[C@@H](CO)C(=O)N[C@@H](CCC(N)=O)C(=O)N[C@@H](CO)C(=O)N1CCC[C@H]1C(=O)N[C@@H](CCCNC(=N)N)C(=O)N[C@@H](CCCNC(=N)N)C(=O)N[C@@H](CCCNC(=N)N)C(N)=O,,,"100 µM, 24 h, pH 7.4, 37 °C, 0.25% v/v erythrocytes",,maximum haemolysis,7.9 ± 0.8%
CC[C@H](C)[C@H](NC(=O)[C@H](CCCCN)NC(=O)[C@H](CC(N)=O)NC(=O)[C@H](Cc1c[nH]c2ccccc12)NC(=O)[C@H](Cc1ccccc1)NC(=O)[C@H](CCCCN)NC(=O)[C@H](CCCCNC(=N)N)NC(=O)[C@H](CC(C)C)NC(=O)[C@H](Cc1c[nH]c2ccccc12)NC(=O)[C@H](CCCCN)NC(=O)[C@H](CCCCNC(=N)N)NC(=O)[C@H](CC(C)C)NC(=O)CNC(C)=O)C(=O)N[C@@H](CCCCN)C(=O)N[C@@H](CCCCNC(=N)N)C(N)=O,,5 % erythrocyte suspension,"1 h, 37 °C",,HC50,107 µM
CC[C@H](C)[C@H](NC(=O)[C@H](CCCCN)NC(=O)[C@H](CCCCN)NC(=O)[C@H](Cc1ccccc1)NC(=O)[C@H](CC(C)C)NC(=O)[C@@H](CCCCN)NC(=O)[C@H](Cc1c[nH]c2ccccc12)NC(=O)[C@H](CCCCN)NC(C)=O)C(=O)NCC(=O)N[C@@H](C)C(=O)N[C@H](C(=O)N[C@@H](CC(C)C)C(=O)N[C@H](CCCCN)C(=O)N[C@H](C(=O)N[C@@H](CC(C)C)C(N)=O)C(C)C)C(C)C,,,"64 µM, 1 h, 37 °C",baseline: Triton X-100,hemolysis,< 6%
CC[C@H](C)[C@H](NC(=O)[C@H](C)NC(=O)[C@H](CCCCN)NC(=O)[C@H](CCCCN)NC(=O)[C@@H](N)CCCNC(=N)N)C(=O)N[C@@H](CCCCN)C(=O)N[C@@H](CC(C)C)C(=O)N[C@H](C(=O)N[C@@H](CCCCN)C(=O)N[C@@H](CCCCN)C(=O)N[C@@H](CC(C)C)C(=O)N[C@H](C(=O)N[C@@H](CCCCN)C(=O)N[C@@H](CCCCN)C(=O)N[C@@H](CC(C)C)C(=O)N[C@@H](CCCCN)C(=O)N[C@@H](CCCCN)C(=O)N[C@@H](C)C(=O)N[C@@H](CC(C)C)C(=O)N[C@@H](CCCCN)C(=O)O)C(C)C)C(C)C,,human blood,,,HC50,> 128 mg/L
CC[C@H](C)[C@H](NC(=O)[C@@H](NC(=O)[C@H](CS)NC(=O)[C@H](C)NC(=O)[C@H](CC(N)=O)NC(=O)[C@H](CCCNC(=N)N)NC(=O)[C@H](CCCNC(=N)N)NC(=O)[C@H](CC(N)=O)NC(=O)[C@H](CCCNC(=N)N)NC(=O)[C@H](CCCNC(=N)N)NC(=O)[C@H](C)NC(=O)[C@H](CS)NC(=O)[C@H](CC(C)C)NC(=O)[C@@H](NC(=O)[C@@H](NC(=O)[C@H](CS)NC(=O)[C@H](CCCCN)NC(=O)[C@@H](N)CCCNC(=N)N)C(C)C)[C@@H](C)CC)C(C)C)C(=O)N[C@@H](CC(C)C)C(=O)N[C@@H](CS)C(=O)N[C@@H](CCCNC(=N)N)C(=O)O,,,"128 µg/mL, 3 h, 37 °C",baseline: Triton X-100,hemolysis,6.52%

# For quick reference, copied from above:
Structure (SMILES),assay,test system,conditions,how to read,endpoint,result
N=C(N)NCCC[C@H](NC(=O)[C@@H](N)CCCCN)C(=O)N[C@@H](Cc1c[nH]c2ccccc12)C(=O)N[C@@H](Cc1ccc(-c2ccccc2)cc1)C(=O)N[C@@H](CCC(N)=O)C(=O)N[C@@H](Cc1c[nH]c2ccccc12)C(=O)N[C@@H](Cc1ccc(-c2ccccc2)cc1)C(=O)N[C@@H](CCCCN)C(N)=O,haemolysis,,"1 h, 37 °C",,HC10,15 µM
